Measured values collected from several papers.
A part holds a random share of what one study measured.

Set 1 — technique: protein binding microarray; molecule type: double-stranded DNA, one strand shown; matrix: in vitro; tested at: not given; relative to: not given; reading: higher = stronger binding
Target: Histone acetyltransferase KAT6A, both winged helices, GST fusion (KAT6A, Homo sapiens, UniProt Q92794, residues 1-181)
Setting: 8-mer, flanks averaged, mean of 2 arrays, mostly near background
Construct (chain): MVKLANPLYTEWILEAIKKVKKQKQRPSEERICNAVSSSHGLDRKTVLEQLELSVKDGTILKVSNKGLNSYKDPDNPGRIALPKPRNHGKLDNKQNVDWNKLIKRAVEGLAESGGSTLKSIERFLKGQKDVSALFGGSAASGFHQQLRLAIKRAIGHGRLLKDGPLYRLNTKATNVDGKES
| Oligonucleotide | E-score |
| --- | --- |
| ATCACGTA | -0.0926 |
| CAAGATCC | 0.0218 |
| CACTCGGG | 0.0608 |
| GTAGGAAC | -0.0997 |
| CCATTGGC | -0.0938 |
| AGAGTCAG | -0.00176 |
| GGGATAAC | 0.0191 |
| CAGGTCGC | 0.0377 |
| AGGTGAAT | -0.127 |
| TTCAGGAA | -0.221 |
| GAGTCCAA | -0.196 |
| GAGAAGAA | -0.0825 |
| AGTCGTCC | -0.0713 |
| GATTATAC | -0.0799 |
| CCACATTA | -0.169 |
| GCAGCACC | -0.0825 |

Set 2 — technique: protein-binding microarray; molecule type: double-stranded DNA, one strand shown; matrix: in vitro; tested at: 2200 nM top; setting: 60-bp whole probe; added: salmon DNA 0.4 mg/ml; relative to: random background probes; reading: higher = stronger binding; all sequences stand within: GCCTAGCAC … GTCTTGATTCGCTTGACGCTGCTG
Target: Interferon regulatory factor 7, full length, phosphomimetic (IRF7, Homo sapiens, UniProt Q92985, residues 1-503, S471D/S472D/S475D/S476D/S477D/S483D/S484D/S487D)
Chain of UniProt Q92985 (whole entry, unmodified, looked up): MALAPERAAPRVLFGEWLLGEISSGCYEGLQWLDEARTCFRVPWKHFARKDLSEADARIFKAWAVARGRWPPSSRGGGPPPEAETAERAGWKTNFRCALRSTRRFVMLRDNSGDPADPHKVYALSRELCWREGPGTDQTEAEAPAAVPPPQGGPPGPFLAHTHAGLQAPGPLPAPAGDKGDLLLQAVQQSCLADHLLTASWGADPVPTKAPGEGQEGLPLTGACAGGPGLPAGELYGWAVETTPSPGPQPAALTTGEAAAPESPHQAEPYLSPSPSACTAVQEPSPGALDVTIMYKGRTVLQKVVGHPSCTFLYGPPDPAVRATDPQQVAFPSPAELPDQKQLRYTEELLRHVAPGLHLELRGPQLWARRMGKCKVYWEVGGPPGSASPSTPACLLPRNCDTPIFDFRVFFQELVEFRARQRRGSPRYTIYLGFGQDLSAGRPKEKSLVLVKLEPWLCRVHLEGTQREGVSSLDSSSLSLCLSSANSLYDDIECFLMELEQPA
| Oligonucleotide | fitted relative affinity [z-score] |
| --- | --- |
| GACGGTTTCTACTATCGGGACGTGCTA | 1.83 |
| GACGGACTGGGGATTCGGGACGTGCTA | -0.534 |
| ATGACAATGATGTTTTGAGTTGTGCTA | 0.282 |
| GACGGTATACTTTTCCTGACGTGCTAG | 0.932 |
| GACGGTTTCGGGTATCGTGACGTGCTA | 5.84 |
| GACGAACTGAGTATTGAGACGTGCTAG | -0.125 |
| TCATAACTTATTCTCTAACTGTGCTAG | 0.767 |
| TTAGATTCCGGGACTGGATTAGTGCTA | -0.202 |
| CCACATTTGATAAATCTTTGTGTGCTA | 0.846 |
| TCATATGTCATTTACATACTGTGCTAG | 1.35 |
| GACGGACTTGGTATCGGGACGTGCTAG | -0.288 |
| GACGGACTGTGTTTCGGGACGTGCTAG | 1.18 |
| TCAGATATAGGATAACGAACTGTGCTA | -0.386 |
| GTGGGTTTGAGTCTTCTCCTGTGCTAG | 0.575 |
| TCAGAAATCGGTGATCAGACTGTGCTA | -0.388 |
| GACGGTTTCCTACTGCTCACGTGCTAG | 2.02 |
| GACGGTATCGGACTGGAGACGTGCTAG | -0.266 |
| CTTGCTTCCCAATTCTCTTTGTGCTAG | 2.4 |
| TTAGGTATCCTTCGCCTTTAGTGCTAG | 0.925 |
| GACGGACTGGACTATCGGGAAGTGCTA | -0.802 |
| AATATGTTCCCTATATAAGGGTGCTAG | 0.661 |
| CCTTGTACGTCGTTTCCCAAGGTGCTA | 1.57 |
| TTAGGACTGTTTTTCCTTTAGTGCTAG | 1.73 |
| CCAGGAAAAGGGATTCAGTTGTGCTAG | -0.589 |
| GACCGACTGGGTTTCGGGACGTGCTAG | 1.27 |

Set 3 — technique: RNA Bind-n-Seq; molecule type: RNA; matrix: in vitro; tested at: 200 nM; setting: whole 134-nt RNA, ends assumed; added: 150 mM KCl; relative to: input library; reading: higher = stronger binding
Target: Fragile X messenger ribonucleoprotein 1, C-terminal low-complexity region (Fmr1, Mus musculus, UniProt P35922)
All sequences stand within: GGGAGUUCUACAGUCCGACGAUC … UGGAAUUCUCGGGUGUCAAGG
| Oligonucleotide | log2 enrichment |
| --- | --- |
| ACCAUGCAGGUGGGCAUCUUUGGGAAGUGGGGCAAGGGGGGGAUAGGGAGGGGGGUAACACUUUGGGAACAGAAAGUCCCAGGUCGUUUC | 0.475 |
| UCAAGUCCUGUGCUACACAUCGUAUGUACCGAAUCGGAAAAAAAGGAGGAAAGGAAAGUAUUAUGUUACGCCGUUCGGAUCUGCACUUCC | -0.752 |
| UCCUGUGCUACACAUCGUAUGUACCGAAUCGGGGUUUUUGGGUUUUUGGGUUUUUGGGGAAAGUAUUAUGUUACGCCGUUCGGAUCUGCA | 0.45 |
| UCCUGUGCUACACAUCGUAUGUACCGAAUCGGGGUUUUUGGGGAAAAAAAGGGGAGGGGAAAGUAUUAUGUUACGCCGUUCGGAUCUGCA | 0.603 |
| ACCAUGCAGGUGGGCAUCUUUGGGAAGUGGGGCAAGGGGGGGAUAGGGAGGGGGGUAACACUUUGGGAACAGGUGGUCAAAGGUCGUUUC | 0.285 |
| GUCCUGUGCUACACAUCGUAUGUACCGAAUCGGUUUUUUUGGUUUUUUUGGAAAAAGGAAAGUAUUAUGUUACGCCGUUCGGAUCUGCAC | -0.86 |
| UCCUGUGCUACACAUCGUAUGUACCGAAUCGGUUUUUUGGGUUUUUUGGUUUUUUGGGGAAAGUAUUAUGUUACGCCGUUCGGAUCUGCA | -0.299 |
| GUCCUGUGCUACACAUCGUAUGUACCGAAUCGGGGUUUGGGGAGGGGAAAAAAAGGGGAAAGUAUUAUGUUACGCCGUUCGGAUCUGCAC | 0.271 |
| UGGGAAGUGGAUUUUGUUUAUUUUUUUAGCUCAUUUCCAGGGGUGGGAAUUUUUUUUUAAUAUGUGUCAUGAAUAAAGUUGUUUUUGAAA | -0.262 |
| UCCCUGAGACGGCGGGCAACAGCAUCGGCAGGAACGCCAUGGCCGUCCCCUCCCAGCUCUUACCUUACCAUCGACCUCACAGACGACACA | 0.529 |

Set 4 — technique: universal PBM; molecule type: double-stranded DNA, one strand shown; matrix: in vitro; tested at: 600 nM; reading: higher = stronger binding
Target: Sal-like protein 4, full length isoform A (SALL4, Homo sapiens, UniProt Q9UJQ4, residues 1-1053)
Chain of UniProt Q9UJQ4 (whole entry, looked up): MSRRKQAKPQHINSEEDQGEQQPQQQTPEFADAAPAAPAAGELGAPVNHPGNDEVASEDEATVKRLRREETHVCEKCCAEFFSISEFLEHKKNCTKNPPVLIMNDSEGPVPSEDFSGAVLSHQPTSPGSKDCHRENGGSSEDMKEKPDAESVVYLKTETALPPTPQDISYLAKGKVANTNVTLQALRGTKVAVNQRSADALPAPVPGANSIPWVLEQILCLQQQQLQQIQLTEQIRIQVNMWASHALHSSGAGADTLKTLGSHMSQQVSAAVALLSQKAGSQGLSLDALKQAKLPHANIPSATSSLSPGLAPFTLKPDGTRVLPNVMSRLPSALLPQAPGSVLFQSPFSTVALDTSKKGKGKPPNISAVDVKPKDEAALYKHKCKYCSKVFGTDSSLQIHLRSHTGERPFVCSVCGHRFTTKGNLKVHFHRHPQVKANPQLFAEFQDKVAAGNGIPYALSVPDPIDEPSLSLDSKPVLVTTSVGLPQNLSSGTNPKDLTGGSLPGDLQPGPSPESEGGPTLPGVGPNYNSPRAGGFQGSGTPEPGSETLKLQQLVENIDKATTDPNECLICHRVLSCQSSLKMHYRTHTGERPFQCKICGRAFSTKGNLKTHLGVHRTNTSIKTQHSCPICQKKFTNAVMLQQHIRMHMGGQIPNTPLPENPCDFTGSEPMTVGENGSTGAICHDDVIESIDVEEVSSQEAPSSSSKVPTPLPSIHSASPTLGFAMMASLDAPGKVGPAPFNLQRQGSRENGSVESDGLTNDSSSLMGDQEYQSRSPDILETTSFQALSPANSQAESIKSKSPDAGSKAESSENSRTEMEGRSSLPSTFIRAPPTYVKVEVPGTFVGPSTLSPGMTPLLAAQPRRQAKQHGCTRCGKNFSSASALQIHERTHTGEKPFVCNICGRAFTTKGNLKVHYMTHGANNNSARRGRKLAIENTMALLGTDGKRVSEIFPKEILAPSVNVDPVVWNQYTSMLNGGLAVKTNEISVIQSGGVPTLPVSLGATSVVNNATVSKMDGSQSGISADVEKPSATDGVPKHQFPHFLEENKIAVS
Setting: 8-mer, flanks averaged, mean of replicates
| Oligonucleotide | E-score |
| --- | --- |
| ACGGCTTC | -0.162 |
| CGAGCTGC | -0.212 |
| CTGTCAAC | -0.149 |
| CACAGGTG | -0.0785 |
| CTGATCCC | -0.142 |
| CCAGGCGG | -0.335 |
| CGGTTAAG | 0.042 |
| AATTAGAC | 0.31 |
| AAAAGATT | 0.18 |
| GGGGTGAC | -0.147 |
| AAGTTTTG | 0.119 |
| AGCAGACT | 0.0967 |
| GGGGCTGA | -0.275 |
| TCATCTCA | 0.134 |
| CTACTCCA | 0.0273 |
| CGGCAAAA | -0.0153 |
| AACGGCAT | 0.107 |
| AGCCACAC | -0.0754 |
| AGTAACTG | 0.137 |

Excerpt of the above (set 4):
| Oligonucleotide | E-score |
| --- | --- |
| AAGTTTTG | 0.119 |
| ACGGCTTC | -0.162 |
| AGTAACTG | 0.137 |
| CTGTCAAC | -0.149 |
| AACGGCAT | 0.107 |
| CGGTTAAG | 0.042 |
| AGCCACAC | -0.0754 |
| GGGGTGAC | -0.147 |
